Experimental data of several laboratories.
A part holds a random share of what one study measured. Substitutions count along the parent as printed.

Block 1 — technique: protein-binding microarray; molecule type: double-stranded DNA, one strand shown; matrix: in vitro; tested at: 2540 nM top; setting: 60-bp whole probe; added: salmon DNA 0.4 mg/ml; reference: random background probes; direction: higher = stronger binding; shared flanks, not repeated: GCCTAGCAC … GTCTTGATTCGCTTGACGCTGCTG
Target: Interferon regulatory factor 3, full length, phosphomimetic (IRF3, Homo sapiens, UniProt Q14653, residues 1-427, S386D/S396D/S398D/S402D/T404D/S405D)
Residues (chain): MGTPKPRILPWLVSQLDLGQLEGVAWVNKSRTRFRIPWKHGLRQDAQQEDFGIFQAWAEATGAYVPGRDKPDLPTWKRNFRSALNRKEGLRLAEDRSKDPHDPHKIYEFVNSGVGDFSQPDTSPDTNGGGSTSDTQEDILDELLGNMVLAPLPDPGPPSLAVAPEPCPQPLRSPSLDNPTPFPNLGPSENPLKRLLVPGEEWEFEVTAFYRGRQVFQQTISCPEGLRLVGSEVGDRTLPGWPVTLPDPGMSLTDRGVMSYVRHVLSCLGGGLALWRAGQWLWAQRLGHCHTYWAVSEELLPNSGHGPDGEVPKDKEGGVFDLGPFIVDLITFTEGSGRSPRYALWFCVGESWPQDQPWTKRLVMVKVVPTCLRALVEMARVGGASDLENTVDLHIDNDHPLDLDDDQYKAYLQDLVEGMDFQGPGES
| Oligonucleotide | fitted relative affinity [z-score] |
| --- | --- |
| AGGGTGTTCTTTTCTGTTGTCGTGCTA | 0.949 |
| GATGGTCTCCTTCTCCTGACGTGCTAG | 3.94 |
| TTAGGTTTCCTTTTTCTTTAGTGCTAG | 11.3 |
| GACGGACTGGGGTTTCGGGGCGTGCTA | 0.108 |
| GACGATTGCGGGTTTCGAGACGTGCTA | 0.885 |
| TGGTTTTCCTTATTGCTTCCTGTGCTA | 4.38 |
| GACGGTATCGGGCTCGGGACGTGCTAG | 0.987 |
| AGAGCTGTCCTTTGCAACAGGTGCTAG | 0.0947 |
| TTAGATCTCAGTATCGATAAGTGCTAG | 0.806 |
| TTAGGTTTCGACTATCGGTGAGTGCTA | 2.36 |
| TCATGTTTCTCAACCAGACTGTGCTAG | 1.28 |
| TTAGGTATCGGAGTGGGTTAGTGCTAG | 1.18 |
| TTAGAACTGAGACTGGGTTAGTGCTAG | -0.491 |

Block 2 — technique: DHFR PCA, deep sequencing; matrix: yeast; added: (+)-ABA 200 µM; reference: wild-type fitted maximum; direction: higher = stronger binding
Target: ABI1, truncated, D143A, DHFR fusion (Arabidopsis thaliana)
Setting: methotrexate growth selection, single substitutions
Starting sequence: PYL1, truncated, DHFR fusion (Arabidopsis thaliana); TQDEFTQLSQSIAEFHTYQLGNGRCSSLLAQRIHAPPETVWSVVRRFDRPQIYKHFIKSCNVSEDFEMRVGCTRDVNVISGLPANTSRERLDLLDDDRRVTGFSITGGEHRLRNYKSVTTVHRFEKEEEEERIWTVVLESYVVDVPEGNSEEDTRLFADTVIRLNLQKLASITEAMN
| Variant | relative binding score [%] |
| --- | --- |
| S42H | 92.4 |
| E174F | 64.7 |
| G102H | 1.98 |
| E147G | 87.4 |
| V70Q | 94.4 |
| L156M | 102 |
| A13L | 95.2 |
| E131G | 117 |
| Q2C | 102 |
| L94E | 3.75 |
| V143G | 5.74 |
| D153I | -4.94 |
| I52W | 90.2 |
| E125Y | 101 |
| R132L | 105 |
| Q19K | 106 |
| T6S | 99.8 |
| L169R | -1.64 |
| T106Q | 94.1 |
| V78E | -2.03 |
| P50W | 13.3 |
| M176I | 97.8 |

Block 3 — technique: RNA Bind-n-Seq; molecule type: RNA; matrix: in vitro; tested at: 365 nM; reference: no-protein control; direction: higher = stronger binding
Target: RNA binding protein fox-1 homolog 2, RRM domain, GST-SBP tag (RBFOX2, Homo sapiens, UniProt O43251-10, residues 100-194)
Setting: natural RNA segment, single round, ends assumed
Shared flanks, not repeated: GGGAGUUCUACAGUCCGACGAUC … UGGAAUUCUCGGGUGCCAA
Target sequence (chain): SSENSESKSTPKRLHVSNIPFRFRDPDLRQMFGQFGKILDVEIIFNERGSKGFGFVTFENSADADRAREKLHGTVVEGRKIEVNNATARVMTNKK
| Oligonucleotide | RBNS enrichment (R) |
| --- | --- |
| AAACUAUUGUCCAUUAACAUGAUAUGCUAAACAUUCUAUAAACAUUCUUGUAUUUAUGUGAGACUUGCCCAUCUACUGUCUUGGCUGUGUCUUGCCUUUUAAUCAUGAAC | 0.532 |
| GUGACAGCUUGCUUCAGGACAAAGCAACAGUGAAGUGAGAAAAUGUCAACAGGAGAGAAAGGGCCCGGCAACCCUCUGGCCCUAACCUGCUCUAGCCUGUACAUCCCACA | 0.602 |
| GAAGAGAUUUUUACAGUAACAUAAAAGCAGAAUUCUUAUGUUGAUAUUAACCUGCAAAUGGACUGUCAGCACCAGGUGGUGUCUUCUAACUCUGGUCCUUACAUCACAGA | 0.298 |
| GUAGCAUGAUUUUCCUUGGGAUGCAAAUCUUAAAACAGUCCUUUAAUAUGAACCAACAAUCUGGAGCACACCGAAGGGCAAUCUAAAUUGUGGCUUGAAGGACUGCACUA | 1.26 |
| CUCGAGGGGUAGCUGUCUCCUGCAGAGACAAGAGCCGAAGCACUGGUCUCAUUGAAGACGACACGUACUACCCCAUAAGCUAGUAAGCCAGCAAGAAAGGCCAUGCCACC | 0.246 |
| GCCGGAUGCAGUGCAGCCAUAUAUUUAUCAGAAAGGUUUUAGAGUAUGUCUAUUGAUCCAUUUCUAGAAAAGAUGGUCGUAACUUAAGGAGUGAUAUUUGUGGAGGAGGA | 1.37 |
| AACACUUCAAAAAUUAUCUUCAAUCUCCAUUCUCAUGGUAUCUCAUUUUUACUUGGCCCCCAGCAGAUAAUUUUCACCAGUGUUCCAUAUCCUUGUUCUCCAUUCAAGCC | 0.417 |
| UAAGAAAACUGGUCUUCAGAUAGUUAAGGGCUUGGGAUAAUUUAAGUGAAAAGUGAGAUCAGUAAUGAGCUGUGUUGUUAACAAUAUUAUCUGGUAAUAAUACCAUGCAA | 0.32 |
| GGCUCAACUCUGUGUCUCCUGAGCACCAGCAGCCAAGCCUGUUCAUGAUGAUGUGCACACAGUCAUUCUACAGGAGCUUUGCACAGCCUUCCUGCAGUUCUCAAAGGGGA | 0.869 |
| UGGCGCACGCUUAUUUUAGGCCAGCGGCAGGGGACUCCAGCCUGCUGGACACUUCAGUCCAGCUCUCUCCUGACUGGGGCUUGCGACUCACAGGAUUGCAUCGUCCCAGC | 6.54 |
| UGGGGUGACAUAAACUAGAUAAAGGGCCUUUCUUGGAGAACUAGGCUUAAGGAAUAUCCCUGUCUUCUGUCUUUUGGUUUUCGUUUGUUCGUCUUUUAUUUUCUUGUGGC | 0.772 |
| ACCCACCUCACAGGCCACCUCAGUGGCGCCUGCCCACUGCGGGCUGGCUGCUCCUACCUACCUCGCCGAGCUGUCGGAGGGCUGGACGCUCCUGGCAGUGCUGAAGGAGG | 0.325 |

Block 4 — technique: RNA Bind-n-Seq; molecule type: RNA; matrix: in vitro; tested at: 200 nM; setting: whole 134-nt RNA, ends assumed; added: 150 mM LiCl; reference: input library; direction: higher = stronger binding; each molecule: 7-deaza-guanosine replaces G
Target: Ras GTPase-activating protein-binding protein 1, full length (G3BP1, Homo sapiens, UniProt Q13283)
Chain of UniProt Q13283 (whole entry, looked up): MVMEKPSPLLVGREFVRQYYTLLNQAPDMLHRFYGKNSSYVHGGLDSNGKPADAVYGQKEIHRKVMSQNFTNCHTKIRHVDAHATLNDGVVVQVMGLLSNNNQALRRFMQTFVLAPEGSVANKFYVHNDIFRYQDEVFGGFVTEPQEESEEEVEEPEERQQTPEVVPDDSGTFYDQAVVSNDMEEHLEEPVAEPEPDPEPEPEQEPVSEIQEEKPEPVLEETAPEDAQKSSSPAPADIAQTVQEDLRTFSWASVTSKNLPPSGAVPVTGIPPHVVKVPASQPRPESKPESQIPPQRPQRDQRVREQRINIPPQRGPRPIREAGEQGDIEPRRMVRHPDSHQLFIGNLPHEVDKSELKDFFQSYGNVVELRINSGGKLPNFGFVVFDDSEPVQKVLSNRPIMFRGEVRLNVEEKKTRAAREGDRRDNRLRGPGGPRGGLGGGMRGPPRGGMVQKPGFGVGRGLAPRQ
Shared flanks, not repeated: GGGAGUUCUACAGUCCGACGAUC … UGGAAUUCUCGGGUGUCAAGG
| Oligonucleotide | log2 enrichment |
| --- | --- |
| ACCAAGCAGGUGGGCAUCUUUGGGAAGUGGGGCAAGGGGGGGAUAGGGAGGGGGGUAACACUUUGGGAACAGGUGGUCCCAGGUCGUUUC | 0.243 |
| UGGCCCUGGUGGCAUGCGGGGAGGAAGAGGUGGCCUCAUGGAUCGUGGUGGUCCGGGUGGAAUGUUCAGAGGUGGCCGUGGUGGAGACAG | 0.377 |
| ACCAUGCAUGUGGGCAUCUUUGGGAAGUGGGGCAAGGGGGGGAUAGGGAGGGGGGUAACACUUUGGGAACAGGUGGUCCCAGGUCGUUUC | 0.0794 |
| ACCAUGCAGGUGGGCUUCUUUGGGAAGUGGGGCAAGGGGGGGAUAGGGAGGGGGGUAACACUUUGGGAACAGGUGGUCCCAGGUCGUUUC | -0.00865 |
| CAAGUCCUGUGCUACACAUCGUAUGUACCGAAUCGGUGGUUUUUUUGGAAAAAGGAAAGUAUUAUGUUACGCCGUUCGGAUCUGCACUUC | -0.478 |
| ACCAUGCAGGUGGGCAUCUUUGGGAAGUGGGGCAAGGGGGGGAUAGGGAGGGGGGUAACACUUUAGGAACAGGUGGUCCCAGGUCGUUUC | -0.247 |
| UCAAGUCCUGUGCUACACAUCGUAUGUACCGAAUCGGAAAGGGGAAAGGGAAAGGAAAGUAUUAUGUUACGCCGUUCGGAUCUGCACUUC | -0.505 |

Block 5 — target: CCND2, cyclin fold, Cln2 fusion (human); technique: yeast growth competition, sequencing; matrix: yeast; setting: weak parent motif; reference: not given; direction: higher = stronger binding
Starting sequence: RB1 docking peptide (human); PKPLKKLRFDIEG; partner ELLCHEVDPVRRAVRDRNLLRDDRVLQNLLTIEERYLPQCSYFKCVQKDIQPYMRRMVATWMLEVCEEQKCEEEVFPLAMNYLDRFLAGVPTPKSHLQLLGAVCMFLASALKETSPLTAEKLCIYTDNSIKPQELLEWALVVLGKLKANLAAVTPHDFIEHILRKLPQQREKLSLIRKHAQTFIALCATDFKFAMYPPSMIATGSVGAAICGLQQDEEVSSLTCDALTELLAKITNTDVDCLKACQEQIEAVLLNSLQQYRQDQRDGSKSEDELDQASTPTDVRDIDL
| Variant | normalised enrichment score |
| --- | --- |
| PKNLKKLRFDIEG [P3N] | 0.155 |
| PKCLKKLRFDIEG [P3C] | 0.927 |
| NKPLKKLRFDIEG [P1N] | 0.007 |
| PKPLGKLRFDIEG [K5G] | 0.0979 |
| PKPLKSLRFDIEG [K6S] | -0.00936 |
| PKPLKKNRFDIEG [L7N] | -0.16 |
| PEPLKKLRFDIEG [K2E] | 0.252 |
| PKPLKKLRFDSEG [I11S] | 0.16 |
| PKPLPKLRFDIEG [K5P] | 0.335 |
| PKPLKKLRFDIGG [E12G] | 0.367 |
| PKPLQKLRFDIEG [K5Q] | 0.3 |
| WKPLKKLRFDIEG [P1W] | 0.324 |
| PKPCKKLRFDIEG [L4C] | 0.544 |
| PKPLKKLRFDIEE [G13E] | 0.623 |
| PKPLKKLRFMIEG [D10M] | 0.648 |
| PQPLKKLRFDIEG [K2Q] | -0.0541 |

Excerpt of the above (block 5):
| Variant | normalised enrichment score |
| --- | --- |
| PEPLKKLRFDIEG [K2E] | 0.252 |
| PKPLKKLRFDSEG [I11S] | 0.16 |
| PKPLPKLRFDIEG [K5P] | 0.335 |
| PKPLKKLRFDIGG [E12G] | 0.367 |
| PKPLQKLRFDIEG [K5Q] | 0.3 |
| WKPLKKLRFDIEG [P1W] | 0.324 |
| PKPCKKLRFDIEG [L4C] | 0.544 |
| PKPLKKLRFDIEE [G13E] | 0.623 |
